Measurements gathered from unrelated publications.
Compare with care: the assays were run in different laboratories. “And” joins repeats or separate records; there may be more than shown. Numbers after ± are the reported error. In brackets after ≈: the same amount, converted by molar mass.

[H]/N=C(\N/C(=N/[H])NCCCCCCNC(=N)NC(=N)Nc1ccc(Cl)cc1)Nc1ccc(Cl)cc1 — cell surface hydrophobicity (Streptococcus sobrinus; ATCC 33478; MIC; reference: control): decreased
Nc1nc(-c2ccccc2)nc2[nH]nc(Nc3ccc(C(F)(F)F)cc3)c12 — clinical score (coxsackievirus B3; 31-1-93, NMRI mice, CVB3 chronic myocarditis; oral, 100 mg/kg twice daily, day 4, dosed days 1 to 7, score scale 0 to 7; direction not given): 0.67
CC1(C)S[C@@H]2[C@H](NC(=O)[C@H](N)c3ccccc3)C(=O)N2[C@H]1C(=O)O — cell width (Bacillus subtilis; bacterial cytological profiling; ATCC 6633; concentration not given): 0.95 µm and 0.85 µm and 0.89 µm
CC1(C)S[C@@H]2[C@H](NC(=O)[C@H](N)c3ccccc3)C(=O)N2[C@H]1C(=O)O — MIC (Pseudomonas aeruginosa; clinical isolate RKI-No_481/15): > 16 µg/mL
O=c1[nH]c2ncsc2c(=O)n1O — growth inhibition (Amaranthus retroflexus; 750 g/ha, 21 days, post-emergence, glasshouse pot): 34.5%
N#C[C@@]1(c2ccc3c(N)ncnn23)O[C@H](COC(=O)c2ccccc2)[C@@H](O)[C@H]1O — EC50 (human respiratory syncytial virus; viral replication, viral protein ELISA; HEp-2, A2; 5 days): 480 ± 52 nM
CC(C)n1ncc2c(C(=O)NCC3(C)CNC3)cc(C3CC3)nc21 — plaque area (enterovirus A71; Tainan/4643/1998; 0.1 µM): 85.6% and 75.5%
CCn1c(=O)c(-c2cc[nH]n2)cc2c(C)nc(N)nc21 — cellular necrosis score (enterovirus A71; suckling mouse, EV71-infected, liver; 0.25 mg/kg; direction not given): 0
CO[C@H]1/C=C/O[C@@]2(C)Oc3c(C)c(O)c4c(c3C2=O)C2=NC3(CCN(CC(C)C)CC3)NC2=C(NC(=O)/C(C)=C\C=C\[C@H](C)[C@H](O)[C@@H](C)[C@@H](O)[C@@H](C)[C@H](OC(C)=O)[C@@H]1C)C4=O — IC50 (Mycobacteroides abscessus; bacterial growth; subsp. abscessus K21 clinical isolate): 1620 nM
Cc1cc(OC(C)C)ccc1C(=O)C(C)(C)NC(=O)c1sccc1C — inhibition (Botrytis cinerea; mycelial growth; B05.10; 0.001 µg/mL): 21.2 ± 21.1%
CN(C)[C@@H]1C(O)=C(C(N)=O)C(=O)[C@@]2(O)C(O)=C3C(=O)c4c(O)cccc4[C@@](C)(O)[C@H]3C[C@@H]12 — cell area (Bacillus subtilis; bacterial cytological profiling; ATCC 6633; concentration not given): 1.88 µm² and 1.79 µm² and 1.7 µm²
CCc1nc2[nH]c(=O)n(O)c(=O)c2s1 — growth inhibition (Amaranthus retroflexus; 750 g/ha, 21 days, post-emergence, glasshouse pot): 0%
O=C(O)c1cn(C2CC2)c2cc(N3CCNCC3)c(F)cc2c1=O — DNA length (Bacillus subtilis; bacterial cytological profiling; ATCC 6633): 2.78 µm and 2.54 µm and 2.41 µm
COC[C@H]1O[C@@H]2O[C@@H]3[C@@H](OC)[C@@H](OC)[C@@H](O[C@@H]4[C@@H](OC)[C@@H](OC)[C@@H](O[C@@H]5[C@@H](OC)[C@@H](OC)[C@@H](O[C@@H]6[C@@H](OC)[C@@H](OC)[C@@H](O[C@@H]7[C@@H](OC)[C@@H](OC)[C@@H](O[C@@H]1[C@@H](OC)[C@H]2OC)O[C@@H]7COC)O[C@@H]6COC)O[C@@H]5COC)O[C@@H]4COC)O[C@@H]3COC — inhibition (Escherichia coli; LuxR reporter, antagonist; DH5α sensor strain; 100 µM, together with: OHHL 200 nM): -9 ± 12%
CN[C@H](CC(C)C)C(=O)N[C@H]1C(=O)N[C@@H](CC(N)=O)C(=O)N[C@H]2C(=O)N[C@H]3C(=O)N[C@H](C(=O)N[C@H](C(=O)O)c4cc(O)cc(O)c4-c4cc3ccc4O)[C@H](O)c3ccc(c(Cl)c3)Oc3cc2cc(c3O[C@@H]2O[C@H](CO)[C@@H](O)[C@H](O)[C@H]2O[C@H]2C[C@](C)(N)[C@H](O)[C@H](C)O2)Oc2ccc(cc2Cl)[C@H]1O — MIC50 (Staphylococcus epidermidis; methicillin-resistant, 10 isolates; serum 50%): 2 µg/mL (≈ 1.38 µM)
Cc1ccc(N(c2ccc(NC(=O)CN(C)c3ccccc3N3CCCC3=O)cc2)C(C)C)cc1 — EC50 (Plasmodium falciparum; gametocyte viability, luciferase; stage V gametocytes; 48 h): 123 nM
N=C(N)c1cccc(OCc2ccc(COc3cccc(C(=N)N)c3)cc2)c1 — MIC in combination (Escherichia coli; BW25113; concentration not given, lowest-FICI combination, together with: novobiocin): 50 µg/mL
N#C[C@@]1(c2ccc3c(N)ncnn23)O[C@H](COC(=O)C2CCC(F)CC2)[C@@H](O)[C@H]1O (stereo partly drawn) — EC50 (human respiratory syncytial virus; viral replication, viral protein ELISA; HEp-2, A2; 5 days): 480 ± 65 nM
C#CCON=C1C=CC(=C(C#N)c2ccccc2)C=C1 — MFC (Pichia norvegensis; broth dilution; ATCC 96139; 48 h, 37 °C): 64 µg/mL (≈ 246 µM)
C[C@@H]1O[C@@H](OC[C@H]2O[C@@H](Oc3c(-c4ccc(O)c(O)c4)oc4cc(O)cc(O)c4c3=O)[C@H](O)[C@@H](O)[C@@H]2O)[C@H](O)[C@H](O)[C@H]1O — inhibition zone diameter (Streptococcus sobrinus; 500 µg/disc): 14.5 ± 1.5 mm
COc1cccc2c1C(=O)c1c(O)c3c(c(O)c1C2=O)C[C@@](O)(C(=O)CO)C[C@@H]3O[C@H]1C[C@H](N)[C@H](O)[C@H](C)O1 — DNA length (Bacillus subtilis; bacterial cytological profiling; ATCC 6633): 2.4 µm and 2.41 µm and 2.67 µm
O=c1oc2c(O)c(O)cc3c(=O)oc4c(O)c(O)cc1c4c23 — inhibition zone diameter (Streptococcus sobrinus; 500 µg/disc): 17.2 ± 1.3 mm
N#C[C@@]1(c2ccc3c(N)ncnn23)O[C@H](COC(=O)C2CCCCC2)[C@@H](O)[C@H]1O — EC50 (human respiratory syncytial virus; viral replication, viral protein ELISA; HEp-2, A2; 5 days): 520 ± 88 nM
CO[C@H]1/C=C/O[C@@]2(C)Oc3c(C)c(O)c4c(O)c(c(/C=N/N5CCN(C)CC5)c(O)c4c3C2=O)NC(=O)/C(C)=C\C=C\[C@H](C)[C@H](O)[C@@H](C)[C@@H](O)[C@@H](C)[C@H](OC(C)=O)[C@@H]1C — cell width (Bacillus subtilis; bacterial cytological profiling; ATCC 6633; concentration not given): 0.86 µm and 0.88 µm
O=C(O[C@@H]1O[C@@H]2COC(=O)c3cc(O)c(O)c(O)c3-c3c(cc(O)c(O)c3O)C(=O)O[C@H]([C@H]1O)[C@@H]2O)c1cc(O)c(O)c(O)c1 — MBC/MIC ratio (Streptococcus sobrinus; broth microdilution): 2
C=CC[C@@H]1c2ccc(OC)c(OC)c2CN2CCc3cc4c(cc3[C@H]12)OCO4 — relative wound size (Staphylococcus aureus; P2rx7+/+ mice, skin wound infection; dose not given, day 7; reference: day 0): 0.61 and 0.36 and 0.14 and 0.87 and 0.11 and 0.17
O=c1c(O)c(-c2ccc(O)cc2)oc2cc(O[C@@H]3O[C@H](CO)[C@@H](O)[C@H](O)[C@H]3O)cc(O)c12 — MBC (Streptococcus sobrinus; ATCC 33478): 400 µg/mL (≈ 892 µM)
CCc1nn(C)c2nc(-c3ccc(C(=O)O)cc3)nc(NCc3ccc(F)cc3)c12 — parasite number (Cryptosporidium parvum; HCT-8; EC90, 48 h; reference: DMSO control): 28.2% and 31.6% and 32.2% and 32.5%
CC(C)C[C@H](NC(=O)OCc1ccccc1)C(=O)N[C@H](C=O)C[C@@H]1CCCNC1=O — EC90 (enterovirus A71; viral replication, RT-qPCR; RD; 72 h): 2840 ± 40 nM
COc1cc([C@@H]2c3cc4c(cc3[C@H](O)[C@H]3COC(=O)[C@H]23)OCO4)cc(OC)c1OC — viral entry inhibition (Dengue virus type 2; plaque; 0.1 µM, 24 h pretreatment): inactive
COC(=O)[C@H](Cc1c[nH]c2ccccc12)NCc1cc2ccccc2nc1OC — growth (Pseudomonas aeruginosa; 8 µg/mL, together with: pentamidine 50 µM; reference: control): 97.9%
N=C(N)c1ccc(OCc2ccc(Br)cc2COc2ccc(C(=N)N)cc2)cc1 — FICI (Escherichia coli; checkerboard; W3110; unit not given, together with: rifampicin; lower = stronger synergy): ≤ 0.047
O=C1OC[C@H]2OC(O)[C@H](O)[C@@H](O)[C@@H]2OC(=O)c2cc(O)c(O)c(O)c2-c2c(O)c(O)c3oc(=O)c4c(c(O)c(O)c5oc(=O)c2c3c54)-c2c1cc(O)c(O)c2O (mixture of isomers) — MBC/MIC ratio (Streptococcus sobrinus; broth microdilution): 2
COC(=O)[C@@H](CCSC)NCc1cc2ccccc2nc1SC — growth (Pseudomonas aeruginosa; 8 µg/mL, together with: pentamidine 50 µM; reference: control): 101%
O=c1c(-c2nc3ccccc3s2)cc2c(n1NS(=O)(=O)c1ccccc1)CCCC2 — reduction (Human mastadenovirus B; viral replication, plaque reduction; HEp-2 cells, type 7; non-toxic concentration): 10%
Cc1nc2[nH]c(=O)n(O)c(=O)c2s1 — growth inhibition (Amaranthus retroflexus; 750 g/ha, 21 days, post-emergence, glasshouse pot): 0%

Some of these lines once more:
CC1(C)S[C@@H]2[C@H](NC(=O)[C@H](N)c3ccccc3)C(=O)N2[C@H]1C(=O)O — MIC (Pseudomonas aeruginosa; clinical isolate RKI-No_481/15): > 16 µg/mL
O=c1[nH]c2ncsc2c(=O)n1O — growth inhibition (Amaranthus retroflexus; 750 g/ha, 21 days, post-emergence, glasshouse pot): 34.5%
N#C[C@@]1(c2ccc3c(N)ncnn23)O[C@H](COC(=O)c2ccccc2)[C@@H](O)[C@H]1O — EC50 (human respiratory syncytial virus; viral replication, viral protein ELISA; HEp-2, A2; 5 days): 480 ± 52 nM
CC(C)n1ncc2c(C(=O)NCC3(C)CNC3)cc(C3CC3)nc21 — plaque area (enterovirus A71; Tainan/4643/1998; 0.1 µM): 85.6% and 75.5%
